Measurements pooled from the literature.
Each line is one published result; not all experiments were run side by side. Several values in a cell are separate wells, animals, samples, runs or records. Numbers after ± are the reported error.

SMILES | test | test system | setting | scale | endpoint | value
O=C(NS(=O)(=O)c1cccs1)c1cc2ccccc2n1Cc1ccc(Br)c2ccccc12 | – | KM mouse, chronic hyperuricaemia model | dose not given, day 10 | – | body weight | 30.1 g and 32.6 g and 25 g and 28.9 g and 29.5 g and 29.4 g
CC1(F)C(O)C(CO)OC1n1cnc2c(=O)[nH]c(N)nc21 (stereo not shown) | – | healthy adult humans, plasma | oral, 550 mg once daily, day 6, fasted, given alone | – | Cmax, arithmetic mean | 235 ng/mL
CN(O)C(=O)CCC(=O)NCCCN(CCCCN(CCCNC(=O)CCC(=O)N(C)O)C(=O)CCC(=O)N(C)O)C(=O)CCC(=O)N(C)O.[89Zr] | radio-TLC | aqueous buffer | 3 d, pH 5, 37 °C, 89Zr-labelled complex, together with: DTPA 1000-fold excess | – | intact complex | 83.1 ± 4%
CN1CCC[C@]1(C)/C=C/S(=O)(=O)NC(=O)Nc1c2c(cc3c1CCC3O)CCC2 (stereo partly shown) | – | human, plasma | oral, 12.5 mg twice daily of parent drug, day 14, metabolite of dosed drug | – | Tmax at second steady-state dose | 3.5 h
CN([O-])C(=O)CN1CCN(CC(=O)N(C)[O-])CCN(Cc2ccccn2)CC1.[89Zr+4] | – | mouse, bone | intravenous, 24 h | – | tracer uptake | 12.9 %ID/g
Cc1nn(-c2nc3c(F)cc(F)cc3s2)c(O)c1C(c1ccc(C(F)(F)F)cc1)c1c(C)nn(-c2nc3c(F)cc(F)cc3s2)c1O | – | ICR mouse, plasma | intravenous, 5 mg/kg | – | AUMC(0-inf) observed | 322000 h²·ng/mL and 2.26e+06 h²·ng/mL and 263000 h²·ng/mL
CCCC[C@H](NC(=O)CNC(=O)CNC(=O)[C@H](CCCCNC(=O)[C@H](CCN)NC(=O)C(C)c1ccc(CC(C)C)cc1)NC(=O)CN1CCN(CC(=O)O)CCN(CC(=O)O)CCN(CC(=O)O)CC1)C(=O)N[C@H]1CC(=O)NCCCC[C@@H](C(N)=O)NC(=O)[C@H](Cc2c[nH]c3ccccc23)NC(=O)[C@H](CCCNC(=N)N)NC(=O)[C@@H](Cc2ccccc2)NC(=O)[C@H](Cc2c[nH]cn2)NC1=O (stereo partly shown) [lutetium-177 labelled] | – | C57 mice, tumour | 2 h | baseline: muscle | tumour-to-tissue ratio | 68.6
CC(C)[C@H](NC(=O)[C@H](Cc1c[nH]c2ccccc12)NC(=O)[C@H](CCCNC(=N)N)NC(=O)[C@H](CCCNC(=N)N)NC(=O)[C@@H](NC(=O)[C@@H](NC(=O)[C@H](CCCNC(=N)N)NC(=O)[C@@H](NC(=O)[C@@H](NC(=O)[C@H](CCCNC(=N)N)NC(=O)[C@H](CCCNC(=N)N)NC(=O)[C@@H](NC(=O)[C@H](Cc1c[nH]c2ccccc12)NC(=O)[C@H](CCCNC(=N)N)NC(=O)[C@H](CCCNC(=N)N)NC(=O)[C@@H](NC(=O)[C@H](CCCNC(=N)N)NC(=O)[C@H](CCCNC(=N)N)NC(=O)[C@@H](NC(=O)[C@H](Cc1c[nH]c2ccccc12)NC(=O)[C@H](CCCNC(=N)N)NC(=O)[C@@H](N)CCCNC(=N)N)C(C)C)C(C)C)C(C)C)C(C)C)C(C)C)C(C)C)C(C)C)C(=O)N[C@@H](CCCNC(=N)N)C(=O)N[C@@H](CCCNC(=N)N)C(=O)O | – | CD1 mouse, urine | intravenous, 15 mg/kg, 0 to 16 h, [14C]-labelled compound | – | urine volume | 229 µL/day/g body weight
COc1ccnc(C(=O)N[C@H]2COC(=O)[C@H](Cc3ccccc3)[C@@H](OC(=O)C(C)C)[C@H](C)OC2=O)c1O | – | sediment, Swiss lake sand | 20 °C, aerobic dark | – | DT50 | 2.65 days
O=C(OC(C(F)(F)F)C(F)(F)F)N1CCC(CNS(=O)(=O)c2ccc(Cl)cc2)CC1 | – | CB17 SCID mice, male, brain | oral, 10 mg/kg | – | Tlast | 8 h
Cc1cc(-c2ccc(C(=O)[C@@H]3CCCC[C@H]3C(=O)Nc3cnn4c3C(=O)NCC4)cc2)[nH]n1 | – | human, urine | oral, 200 mg | baseline: dose | recovery of radioactivity | 5.62% and 6.8% and 4.93% and 6.73% and 4.97% and 6.33%
O=C(Nc1cnccc1-c1ccc([18F])cc1)c1ccnc(NC(=O)C2CC2)c1 | – | FVB/NJ mouse, both sexes, brain | intravenous, 40 min, together with: tariquidar 15 mg/kg iv | – | SUV | 0.39
C=C(NC(=O)c1csc(-c2nc3c(cc2O)-c2nc(cs2)C(=O)NC(C(C)O)C(=O)NC(=C(C)OC)c2nc(cs2)C(=O)NC2c4nc(cs4)C(=O)NC(COC(=O)c4c5c6c(cccc6n4O)COC(=O)C(OC4CC(C)(O)C(N(C)C)C(C)O4)C2OC5)c2nc-3cs2)n1)C(N)=O (stereo not shown) | – | cynomolgus monkey, male, plasma | intravenous infusion, 9 mg/kg single dose | – | clearance | 3.3 mL/min/kg
[18F]CCn1cc(COc2ccc(-c3nncnn3)cc2)nn1 | – | BALB/c nude mouse, LS174T xenograft | intravenous, 1 h, together with: CC49-TCO 72 h before | – | tumour to muscle ratio | 1.1
OC1(C(F)(F)F)CCN(c2nc(Nc3ccnc(C(F)(F)F)c3)nc(-c3cccc(C(F)(F)F)n3)n2)C1 (stereo not shown) | – | monkey, plasma | oral, 3 mg/kg | – | Tmax | 6 ± 1.26 h
COCC1CN(C2CCN(c3cc(OC)c(Nc4ncc(Br)c(Nc5ccc6c(c5P(C)(C)=O)OCCO6)n4)cc3C)CC2)C1 | – | EGFR-mutant NSCLC patients | oral, 10 mg once daily | – | grade ≥3 treatment-related AEs | 0%
CC(C)(F)CC(NC(c1ccc(-c2ccc(S(C)(=O)=O)cc2)cc1)C(F)(F)F)C(=O)NCC#CBr (stereo not shown) | – | PBS | 100 µM, 23 h, pH 7.45, 37 °C, together with: cysteine 10 mM | – | cysteine adduct formation | 16%
CC[C@H](C)[C@@H]1NC(=O)[C@H](Cc2ccc(O)cc2)NC(=O)CCCSC[C@@H](C(=O)N(CC(=O)N[C@@H](CC(C)C)C(=O)NCC(N)=O)Cc2ccc(F)cc2)NC(=O)[C@H](CC(N)=O)NC(=O)[C@H](CCC(N)=O)NC1=O | – | human | intranasal, 400 µg single dose | – | serious adverse events | 0%
[123I]c1ccc2nc(-c3ccc(-n4ccnn4)nc3)cn2c1 | – | male Wistar rat, bone | intravenous, 4 MBq, 30 min | – | tracer uptake | 0.126 %ID/g
CCCCN1C(=O)c2cccc3c(NCCN4CCOCC4)ccc(c23)C1=O | – | toluene | – | – | fluorescence quantum yield | 0.14
Cc1cc(NC(=O)[C@H](O)c2cc(F)cc(F)c2)ccc1-c1cnc(N)c(C(=O)NC(C)C)c1 | – | athymic nude Foxn1nu mouse, female, plasma | oral, 30 mg/kg | – | dose-normalised Cmax | 122 ng·kg/mL/mg
O=C([O-])CN1CCN(CC(=O)[O-])CCN(CC(CCCc2ccccc2[N+](=O)[O-])N(CC(=O)[O-])CC(=O)[O-])CC1.[177Lu+3] (stereo not shown) | HPLC | human serum | 86 h, pH 7, 37 °C | – | intact radiolabelled complex | 100%
COc1ccc2c(c1)CCn1c[n+]3c(c1-2)-c1ccc(OC)cc1CC3 | – | female NSG mice, blood | 6 mg/kg, day 7, 5 days per week | – | Neutrophils | 62.2 ± 18.4%
C[N+](C)(CCOCCOCCOCCNC(=S)Nc1ccc(C[C@H]2CN(CC(=O)[O-])CCN(CC(=O)[O-])CCN2CC(=O)[O-])cc1)C[c-]1cccc1.[64Cu+2].[Fe+2].c1cc[cH-]c1 | pretargeted biodistribution | nude mouse, BxPC-3 xenograft | 24 h post-radioligand, 72 h lag time | – | tumour uptake | 1.5 ± 0.5 %ID/g
C=CC(=O)Nc1cc(Nc2nccc(-c3c[nH]c4ccccc34)n2)c(OC)cc1N(C)CCN(C)C | storage stability | human dried blood spots | 24 h, -80 °C, high QC level | – | recovery | 94.2%
Cc1cc(C)n(CCN(CCN)CCCCCCNC(=O)[C@@H](N)Cc2c[nH]cn2)n1.[99Tc+].[C-]#[O+].[C-]#[O+].[C-]#[O+] | – | BALB/c nude mice A549 xenograft | intravenous, 24 h | baseline: tumour over blood | tumour-to-tissue ratio | 4.8
Cc1n[nH]c(C)c1CCCOc1cc(C(=O)NCCCCC(NC(=O)CN2CCN(CC(=O)[O-])CCN(CC(=O)[O-])CCN(CC(=O)[O-])CC2)C(=O)NCC2CCC(C(=O)NC(Cc3ccc4ccccc4c3)C(=O)NCCCCC(NC(=O)NC(CCC(=O)O)C(=O)O)C(=O)O)CC2)ccc1F.[177Lu+3] (stereo not shown) | ex vivo biodistribution | mouse 22Rv1 xenograft, tumour | 96 h post-injection | – | tumour uptake | 4.87 ± 0.91 %ID/g
COc1cccc(OC)c1-c1cc(C(=O)NC2(C(=O)O)C3CC4CC(C3)CC2C4)nn1-c1ccc(C(=O)N(C)CCOCCN(C)C(=O)[C@H](CCCCNC(=O)[C@H](CC(C)C)NC(=O)C2OC2C(=O)O)NC(=O)CN2CCN(CC(=O)[O-])CCN(CC(=O)[O-])CCN(CC(=O)[O-])CC2)cc1C(C)C.[177Lu+3] (mixture of isomers) | – | mouse, HT-29 xenograft, heart | 24 h post injection | – | tissue uptake | 0.4 %ID/g

For quick reference, copied from above:
SMILES | test | test system | setting | scale | endpoint | value
C=CC(=O)Nc1cc(Nc2nccc(-c3c[nH]c4ccccc34)n2)c(OC)cc1N(C)CCN(C)C | storage stability | human dried blood spots | 24 h, -80 °C, high QC level | – | recovery | 94.2%
Cc1cc(C)n(CCN(CCN)CCCCCCNC(=O)[C@@H](N)Cc2c[nH]cn2)n1.[99Tc+].[C-]#[O+].[C-]#[O+].[C-]#[O+] | – | BALB/c nude mice A549 xenograft | intravenous, 24 h | baseline: tumour over blood | tumour-to-tissue ratio | 4.8
